Measurements from different studies.
Parts stem from different laboratories: compare values within a part only.
Sequence of UniProt Q8N752 (whole entry, looked up): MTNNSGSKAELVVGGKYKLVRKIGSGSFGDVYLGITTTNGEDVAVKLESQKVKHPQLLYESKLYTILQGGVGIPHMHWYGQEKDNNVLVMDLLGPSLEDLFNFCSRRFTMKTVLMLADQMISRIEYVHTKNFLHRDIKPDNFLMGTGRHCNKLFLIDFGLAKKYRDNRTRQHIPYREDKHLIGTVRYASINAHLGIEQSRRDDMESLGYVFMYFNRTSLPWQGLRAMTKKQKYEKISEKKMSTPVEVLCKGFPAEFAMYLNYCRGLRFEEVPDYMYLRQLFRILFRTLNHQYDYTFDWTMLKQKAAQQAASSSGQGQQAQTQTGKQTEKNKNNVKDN
Sequence of UniProt Q9NRH2 (whole entry, looked up): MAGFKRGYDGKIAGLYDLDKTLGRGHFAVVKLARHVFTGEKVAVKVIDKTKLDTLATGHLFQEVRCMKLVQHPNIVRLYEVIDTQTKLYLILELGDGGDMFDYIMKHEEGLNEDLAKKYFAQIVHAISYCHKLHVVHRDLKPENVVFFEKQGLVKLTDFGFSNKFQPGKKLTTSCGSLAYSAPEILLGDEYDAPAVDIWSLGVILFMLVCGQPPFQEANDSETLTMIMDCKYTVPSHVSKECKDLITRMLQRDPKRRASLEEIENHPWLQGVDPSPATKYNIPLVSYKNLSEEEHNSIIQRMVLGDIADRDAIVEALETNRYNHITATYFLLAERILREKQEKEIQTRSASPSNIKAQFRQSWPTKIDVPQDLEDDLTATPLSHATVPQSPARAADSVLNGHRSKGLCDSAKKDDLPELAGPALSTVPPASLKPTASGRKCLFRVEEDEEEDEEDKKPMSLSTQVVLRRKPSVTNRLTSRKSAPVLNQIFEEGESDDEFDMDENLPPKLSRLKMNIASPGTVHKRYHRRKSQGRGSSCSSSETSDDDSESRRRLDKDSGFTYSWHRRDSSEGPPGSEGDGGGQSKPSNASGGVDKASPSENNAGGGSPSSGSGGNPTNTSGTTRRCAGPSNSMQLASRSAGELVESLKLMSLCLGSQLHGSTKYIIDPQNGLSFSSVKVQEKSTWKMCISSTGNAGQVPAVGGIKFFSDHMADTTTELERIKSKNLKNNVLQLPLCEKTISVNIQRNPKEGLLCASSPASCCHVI
Sequence of UniProt Q8IYT8 (whole entry, looked up): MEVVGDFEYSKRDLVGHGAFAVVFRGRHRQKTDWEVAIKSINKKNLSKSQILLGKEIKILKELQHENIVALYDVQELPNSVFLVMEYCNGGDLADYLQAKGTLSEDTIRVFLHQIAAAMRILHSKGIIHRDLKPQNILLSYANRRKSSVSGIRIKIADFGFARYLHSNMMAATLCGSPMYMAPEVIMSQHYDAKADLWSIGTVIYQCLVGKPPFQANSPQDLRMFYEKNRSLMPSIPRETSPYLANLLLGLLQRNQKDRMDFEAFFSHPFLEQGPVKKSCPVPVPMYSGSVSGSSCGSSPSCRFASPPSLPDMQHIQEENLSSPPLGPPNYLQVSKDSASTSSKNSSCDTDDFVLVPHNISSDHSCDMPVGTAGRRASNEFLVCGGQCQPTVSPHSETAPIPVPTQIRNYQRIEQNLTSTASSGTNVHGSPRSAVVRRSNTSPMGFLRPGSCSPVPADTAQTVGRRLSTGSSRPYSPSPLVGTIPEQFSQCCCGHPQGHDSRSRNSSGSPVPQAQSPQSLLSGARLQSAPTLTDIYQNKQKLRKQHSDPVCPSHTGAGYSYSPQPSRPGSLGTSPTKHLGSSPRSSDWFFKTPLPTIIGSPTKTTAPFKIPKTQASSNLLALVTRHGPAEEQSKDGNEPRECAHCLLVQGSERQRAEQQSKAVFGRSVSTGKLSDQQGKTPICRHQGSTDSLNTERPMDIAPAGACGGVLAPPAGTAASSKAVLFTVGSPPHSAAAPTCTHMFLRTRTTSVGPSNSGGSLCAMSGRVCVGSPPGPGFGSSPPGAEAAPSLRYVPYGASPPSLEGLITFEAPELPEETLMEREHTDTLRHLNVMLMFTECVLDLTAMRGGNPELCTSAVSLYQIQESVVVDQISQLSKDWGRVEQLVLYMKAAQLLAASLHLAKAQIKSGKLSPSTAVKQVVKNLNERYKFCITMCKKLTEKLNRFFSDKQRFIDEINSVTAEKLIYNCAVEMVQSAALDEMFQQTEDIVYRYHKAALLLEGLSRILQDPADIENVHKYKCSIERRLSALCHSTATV
Sequence of UniProt Q9BXA7 (whole entry, looked up): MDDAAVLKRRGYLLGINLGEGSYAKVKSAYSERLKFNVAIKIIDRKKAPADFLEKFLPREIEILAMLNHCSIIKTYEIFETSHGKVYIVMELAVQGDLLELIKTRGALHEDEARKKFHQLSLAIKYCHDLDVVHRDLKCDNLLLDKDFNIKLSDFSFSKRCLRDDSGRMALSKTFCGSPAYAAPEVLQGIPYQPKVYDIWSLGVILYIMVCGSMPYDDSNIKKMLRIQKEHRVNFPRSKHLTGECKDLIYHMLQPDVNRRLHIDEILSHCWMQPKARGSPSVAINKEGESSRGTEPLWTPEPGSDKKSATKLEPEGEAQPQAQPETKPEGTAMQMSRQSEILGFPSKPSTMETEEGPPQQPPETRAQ
Sequence of UniProt Q8N568 (whole entry, looked up): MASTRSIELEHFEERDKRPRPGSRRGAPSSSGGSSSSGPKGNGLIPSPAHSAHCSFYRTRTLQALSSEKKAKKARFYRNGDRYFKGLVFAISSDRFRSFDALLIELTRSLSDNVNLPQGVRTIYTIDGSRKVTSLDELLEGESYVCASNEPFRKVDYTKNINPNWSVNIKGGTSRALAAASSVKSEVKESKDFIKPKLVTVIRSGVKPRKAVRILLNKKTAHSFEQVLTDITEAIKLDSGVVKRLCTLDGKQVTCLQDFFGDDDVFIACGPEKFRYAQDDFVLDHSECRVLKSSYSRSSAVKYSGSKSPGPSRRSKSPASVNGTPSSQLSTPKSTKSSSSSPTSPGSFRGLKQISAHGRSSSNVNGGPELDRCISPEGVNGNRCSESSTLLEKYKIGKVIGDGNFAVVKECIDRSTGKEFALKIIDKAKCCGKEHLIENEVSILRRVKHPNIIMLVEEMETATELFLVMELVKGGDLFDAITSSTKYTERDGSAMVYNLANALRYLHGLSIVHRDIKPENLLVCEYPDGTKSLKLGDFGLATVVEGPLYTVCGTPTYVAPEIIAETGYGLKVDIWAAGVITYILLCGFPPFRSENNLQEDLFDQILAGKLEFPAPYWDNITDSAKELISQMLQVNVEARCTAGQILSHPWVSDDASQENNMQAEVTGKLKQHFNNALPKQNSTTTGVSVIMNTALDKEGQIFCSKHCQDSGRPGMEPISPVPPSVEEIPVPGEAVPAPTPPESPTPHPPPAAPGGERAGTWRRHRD
Sequence of UniProt P29322 (whole entry, looked up): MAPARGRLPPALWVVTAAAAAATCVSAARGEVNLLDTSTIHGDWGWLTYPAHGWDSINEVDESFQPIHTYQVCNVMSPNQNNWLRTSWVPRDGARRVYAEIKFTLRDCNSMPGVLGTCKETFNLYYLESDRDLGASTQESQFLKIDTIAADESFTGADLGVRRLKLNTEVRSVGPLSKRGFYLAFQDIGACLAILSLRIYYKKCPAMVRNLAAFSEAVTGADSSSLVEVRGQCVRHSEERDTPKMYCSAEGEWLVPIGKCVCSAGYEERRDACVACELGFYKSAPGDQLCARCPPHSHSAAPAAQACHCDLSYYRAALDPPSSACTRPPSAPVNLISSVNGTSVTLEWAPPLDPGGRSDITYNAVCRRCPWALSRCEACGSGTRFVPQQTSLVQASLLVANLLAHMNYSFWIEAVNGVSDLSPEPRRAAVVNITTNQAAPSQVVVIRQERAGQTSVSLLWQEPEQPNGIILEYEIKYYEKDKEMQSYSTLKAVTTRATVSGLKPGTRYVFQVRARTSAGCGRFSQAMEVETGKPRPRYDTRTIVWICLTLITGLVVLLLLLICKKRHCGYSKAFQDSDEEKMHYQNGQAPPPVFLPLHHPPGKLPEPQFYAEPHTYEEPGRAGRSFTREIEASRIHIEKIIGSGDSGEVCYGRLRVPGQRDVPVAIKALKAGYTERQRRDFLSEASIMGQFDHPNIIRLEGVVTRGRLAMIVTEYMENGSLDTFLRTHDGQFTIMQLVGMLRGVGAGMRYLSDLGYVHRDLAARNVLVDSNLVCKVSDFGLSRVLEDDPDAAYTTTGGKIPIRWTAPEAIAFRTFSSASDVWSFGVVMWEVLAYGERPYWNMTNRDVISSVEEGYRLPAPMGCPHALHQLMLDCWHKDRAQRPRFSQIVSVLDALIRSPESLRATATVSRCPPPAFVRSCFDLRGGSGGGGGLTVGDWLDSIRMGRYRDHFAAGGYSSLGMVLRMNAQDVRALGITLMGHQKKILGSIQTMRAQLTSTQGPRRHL
Sequence of UniProt Q96GD4 (whole entry, looked up): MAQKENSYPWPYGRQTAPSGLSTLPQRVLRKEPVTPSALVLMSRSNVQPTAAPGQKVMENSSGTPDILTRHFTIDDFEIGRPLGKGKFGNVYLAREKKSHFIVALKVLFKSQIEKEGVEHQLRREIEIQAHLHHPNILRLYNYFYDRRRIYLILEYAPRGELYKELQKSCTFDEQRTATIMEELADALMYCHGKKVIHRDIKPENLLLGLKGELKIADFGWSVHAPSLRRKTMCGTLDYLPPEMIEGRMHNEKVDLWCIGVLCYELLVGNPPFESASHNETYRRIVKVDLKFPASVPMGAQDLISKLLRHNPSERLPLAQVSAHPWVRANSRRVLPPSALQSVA

Series 1
Target: Serine/threonine-protein kinase 26 (STK26, Homo sapiens, UniProt Q9P289)
Sequence of UniProt Q9P289 (whole entry, looked up): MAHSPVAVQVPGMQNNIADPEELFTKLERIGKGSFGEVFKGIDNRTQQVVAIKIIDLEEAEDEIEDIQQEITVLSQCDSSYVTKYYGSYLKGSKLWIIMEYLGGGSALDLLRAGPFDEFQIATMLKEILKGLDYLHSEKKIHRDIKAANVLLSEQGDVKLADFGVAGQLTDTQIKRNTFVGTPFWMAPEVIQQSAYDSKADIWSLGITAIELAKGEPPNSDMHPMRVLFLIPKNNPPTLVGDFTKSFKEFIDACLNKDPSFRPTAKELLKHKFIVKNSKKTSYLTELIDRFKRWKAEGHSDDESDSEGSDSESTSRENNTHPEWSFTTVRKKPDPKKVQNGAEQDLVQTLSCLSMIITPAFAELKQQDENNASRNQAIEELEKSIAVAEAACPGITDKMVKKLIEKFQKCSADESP
Effect on: enzyme activity
Mode: inhibitor
Concentration: 0.5 µM
Relative to: control
Endpoint: remaining activity
Cc1ccc(S(=O)(=O)/C=C/C#N)cc1: 90.7%
c1ccc2c(-c3ccncc3)c[nH]c2c1: 104%
O=C(c1cc2cc(O)ccc2[nH]1)c1cc2cc(O)ccc2[nH]1: 101%
CCCNC(=O)Nc1ccc(Oc2ncnc3cc(OC)c(OC)cc23)cc1Cl: 86.9%
O=Nc1c(-c2c(O)[nH]c3cc(Br)ccc23)[nH]c2ccccc12: 122%
COc1ccc(COc2ccc(Cc3cnc(N)nc3N)cc2OC)cc1: 95.5%
O=C1Cc2c([nH]c3ccc(Br)cc23)-c2ccccc2N1: 108%
O=C1Nc2ccc(Br)cc2/C1=C/c1cc2c([nH]1)CCCC2: 87.9%
CN(C)S(=O)(=O)c1ccc2c(c1)/C(=C/c1cc3c([nH]1)CCCC3)C(=O)N2: 45.6%
O=C1NC(=O)c2c1c1c3ccccc3[nH]c1n1cncc21: 69.4%
N#Cc1cnc2cnc(NCc3cccnc3)cc2c1Nc1ccc(F)c(Cl)c1: 95%
O=C1NC(=O)c2c1c1c3ccccc3[nH]c1c1[nH]c3cc(Br)ccc3c21: 80.5%
CN1CCN(c2ccc3nc(-c4c(N)c5c(F)cccc5[nH]c4=O)[nH]c3c2)CC1: 105%
c1ccc(-c2n[nH]c3c2oc2ccccc23)cc1: 90.6%
Cc1cc(Nc2cc(N3CCN(C)CC3)nc(Sc3ccc(NC(=O)C4CC4)cc3)n2)[nH]n1: 130%
O=c1cc(N2CCOCC2)oc2c(-c3ccccc3)cccc12: 97.2%
CCCCc1c(-c2ccc(OC)cc2)[nH]c2nccnc12: 75.8%
COc1cccc(-c2cc(=O)c3ccccc3o2)c1N: 110%
COc1ccc2c(c1)c(C1=C(c3c[nH]c4ccccc34)C(=O)NC1=O)cn2CCCN(C)C: 40.4%

Series 2
SMILES: N#CC1(c2ccccn2)CCN(Cc2cc(C(=O)N3CCCC3)c(=O)n3ccccc23)CC1
Effect on: cell-free assay
Method: competition with immobilised ligand
Concentration: 1 µM
Endpoint: remaining binding
CDK2 (Homo sapiens, UniProt P24941): 86%
PIK3CA (Homo sapiens, UniProt P42336, E542K): 90%
RIOK3 (Homo sapiens, UniProt O14730): 90%
MYLK2 (Homo sapiens, UniProt Q9H1R3): 87%
CSNK1A1L (Homo sapiens, UniProt Q8N752): 91%
Aurora kinase B (AURKB, Homo sapiens, UniProt Q96GD4): 92%
MAP2K4 (Homo sapiens, UniProt P45985): 83%
EPHA8 (Homo sapiens, UniProt P29322): 100%
EPHB2 (Homo sapiens, UniProt P29323): 77%
FLT3 (Homo sapiens, UniProt P36888, D835H): 87%
FLT3 (Homo sapiens, UniProt P36888, D835V): 98%
LTK (Homo sapiens, UniProt P29376): 90%
FLT3 (Homo sapiens, UniProt P36888, ITD): 100%
CSNK1D (Homo sapiens, UniProt P48730): 74%
CHUK (Homo sapiens, UniProt O15111): 94%
NEK7 (Homo sapiens, UniProt Q8TDX7): 82%
GSK3B (Homo sapiens, UniProt P49841): 100%
MAP3K19 (Homo sapiens, UniProt Q56UN5): 100%
Ribosomal protein S6 kinase alpha-6, C-terminal kinase domain (RPS6KA6, Homo sapiens, UniProt Q9UK32): 91%
EGFR (Homo sapiens, UniProt P00533, T790M): 90%
CAMK4 (Homo sapiens, UniProt Q16566): 96%
FLT3 (Homo sapiens, UniProt P36888, D835V/ITD): 90%
Ribosomal protein S6 kinase alpha-3, C-terminal kinase domain (RPS6KA3, Homo sapiens, UniProt P51812): 100%
WEE1 (Homo sapiens, UniProt P30291): 74%
EGFR (Homo sapiens, UniProt P00533, A750P/del747-749): 94%

Series 3
Compound: Cc1sc(C(=O)NC2COC2)cc1-n1cc(NC(=O)Nc2c(F)cccc2Cl)cn1
Effect on: enzyme activity
Concentration: 10 µM
Endpoint: remaining activity
CHEK1 (Homo sapiens, UniProt O14757); relative to: untreated control: 113%
DCLK2 (Homo sapiens, UniProt Q8N568); relative to: untreated control: 105%
EPHB3 (Homo sapiens, UniProt P54753); relative to: untreated control: 95.8%
TAOK2 (Homo sapiens, UniProt Q9UL54); relative to: untreated control: 88.6%
CSNK1A1L (Homo sapiens, UniProt Q8N752); inhibitor: 105%
HASPIN (Homo sapiens, UniProt Q8TF76); relative to: untreated control: 92.3%
SRPK1 (Homo sapiens, UniProt Q96SB4); relative to: untreated control: 96.8%
ULK2 (Homo sapiens, UniProt Q8IYT8); relative to: untreated control: 69.8%
Cyclin-dependent kinase 19, with cyclin C (CDK19, Homo sapiens, UniProt Q9BWU1); relative to: untreated control: 96.8%
SNRK (Homo sapiens, UniProt Q9NRH2); relative to: untreated control: 101%
PHKG1 (Homo sapiens, UniProt Q16816); relative to: untreated control: 83.2%
TSSK1B (Homo sapiens, UniProt Q9BXA7); relative to: untreated control: 102%

Series 4
Organism: Sarcocystis neurona
Effect on: parasite growth
Concentration: 10 µM
Time: 96 h
Notes: first screen
Relative to: untreated
Endpoint: log2 fold change
Nc1nc(=O)c2nc(CNc3ccc(C(=O)N[C@@H](CCC(=O)O)C(=O)O)cc3)cnc2[nH]1: 0.36
CS(=O)(=O)c1ccc(-c2cc(Br)sc2-c2ccc(F)cc2)cc1: -0.44
C[C@@](Cc1ccc(O)c(O)c1)(NN)C(=O)O: 0.09
CN(C)CCN(Cc1ccccc1)c1ccccn1: 0.21
CC1(C)S[C@@H]2[C@H](NC(=O)[C@H](N)c3ccc(O)cc3)C(=O)N2[C@H]1C(=O)O: 0.2
O=C1CN2Cc3c(ccc(Cl)c3Cl)N=C2N1: 0.31
C[N+]1(C)CCC(OC(=O)C(O)(c2ccccc2)C2CCCC2)C1 (stereo not shown): 0.25
CN(C/C=C/C#CC(C)(C)C)Cc1cccc2ccccc12: 0.13
CN(CCOc1ccc(CC2SC(=O)NC2=O)cc1)c1ccccn1 (stereo not shown): -0.21
CC(=O)OCC[N+](C)(C)C: 0.19
C=C1/C(=C\C=C2/CCC[C@]3(C)[C@@H]([C@H](C)/C=C/[C@@H](O)C4CC4)CC[C@@H]23)C[C@@H](O)C[C@@H]1O: 0.26
C=C(CC)C(=O)c1ccc(OCC(=O)O)c(Cl)c1Cl: 0.22
CCOC(=O)[C@H](CCc1ccccc1)N[C@@H](C)C(=O)N1CCC[C@H]1C(=O)O: 0.1
C[C@@H]1CN(CCCn2c3ccccc3c3ccccc32)C[C@H](C)N1: -0.38
